Experimental data pooled from the literature.
Parts stem from different laboratories: compare values within a part only.

Study 1
Target: Protein C-ets-1 (ETS1, Homo sapiens, UniProt P14921, residues 1-441, Y397A, full length assumed)
Technique: protein-binding microarray
Molecule type: double-stranded DNA, one strand shown
Matrix: in vitro
Concentration: not given
Notes: k-mer, scored over probes, only values ≥0.25
Direction: higher = stronger binding
Residues (chain): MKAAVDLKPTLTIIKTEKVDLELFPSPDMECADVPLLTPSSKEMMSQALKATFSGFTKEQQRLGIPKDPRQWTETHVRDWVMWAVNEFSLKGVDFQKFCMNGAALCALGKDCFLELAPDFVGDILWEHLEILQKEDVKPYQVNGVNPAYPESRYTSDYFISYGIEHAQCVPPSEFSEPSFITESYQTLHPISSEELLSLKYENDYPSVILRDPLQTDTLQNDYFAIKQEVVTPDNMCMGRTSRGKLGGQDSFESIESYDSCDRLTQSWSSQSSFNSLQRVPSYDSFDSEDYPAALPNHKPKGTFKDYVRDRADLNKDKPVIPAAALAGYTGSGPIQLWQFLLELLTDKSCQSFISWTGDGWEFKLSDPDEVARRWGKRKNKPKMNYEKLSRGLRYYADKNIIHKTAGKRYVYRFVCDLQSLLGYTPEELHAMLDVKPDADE
For `ATTGCCGA`, the E-score was 0.276.
`CGGACAAC` has an E-score of 0.296.
`ATGTCGCG` gave an E-score of 0.267.
For `GACAAACA`, the E-score was 0.305.
With `ACAACCAT` the E-score was 0.256.
The E-score of `ACATGTCG` is reported as 0.259.
The E-score of `GCGACAAA` is reported as 0.325.
The E-score of `AACGACAT` is reported as 0.289.
The E-score of `CTTTTGTA` is reported as 0.276.
For `CGACAACC`, the E-score was 0.282.
`AAACGTCG` gave an E-score of 0.291.
The E-score of `GCGCAAAA` is reported as 0.302.
The E-score of `GATGACAA` is reported as 0.339.
`ATATGTAC` gave an E-score of 0.28.
`ATTGTCAG` gave an E-score of 0.366.
For `CGGATGTC`, the E-score was 0.398.
The E-score of `AACAATGT` is reported as 0.31.
The E-score of `ACACTTCC` is reported as 0.288.
For `AATTACAA`, the E-score was 0.271.
`ACTTCCTC` has an E-score of 0.327.
`AACGGAAA` has an E-score of 0.255.

Study 2
Target: RING finger protein unkempt homolog, zinc fingers 1-6, GST-SBP tag (UNK, Homo sapiens, UniProt Q9C0B0, residues 30-357)
Sequence of UniProt Q9C0B0 (30-357, looked up): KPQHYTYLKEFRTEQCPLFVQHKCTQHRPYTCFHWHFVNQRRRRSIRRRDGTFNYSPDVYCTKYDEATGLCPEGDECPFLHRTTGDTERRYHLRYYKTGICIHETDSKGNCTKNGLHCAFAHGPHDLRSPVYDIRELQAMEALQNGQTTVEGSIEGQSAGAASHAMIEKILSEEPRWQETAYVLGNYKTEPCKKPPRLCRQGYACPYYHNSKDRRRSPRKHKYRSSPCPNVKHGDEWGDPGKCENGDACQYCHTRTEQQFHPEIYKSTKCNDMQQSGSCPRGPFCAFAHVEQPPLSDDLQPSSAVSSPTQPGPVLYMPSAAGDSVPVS
Technique: RNA Bind-n-Seq
Molecule type: RNA
Matrix: in vitro
Concentration: not given
Notes: RNA with constant flanks, human and mouse sites, ends assumed
Baseline: input RNA pool
Direction: higher = stronger binding
For `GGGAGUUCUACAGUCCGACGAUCCAUGUCUGCCAGGAUGAACACCAACUUUACAAUGAAUUUUUCACAAAACCAACAUCAAAAUUAGAUGAGCUUUUGGAGAAACUGUGUGUGUCAUUGUAUGAUGUCUUCAGGCCAUUGAUCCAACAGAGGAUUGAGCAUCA`, the bound/input enrichment was 0.108 ratio.
`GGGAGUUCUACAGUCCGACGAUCAGCUCACAGUGCCCCUAGUCUGGGUGCCCGCUGUCCCCGACAAAUGUAACCACCUCCCUGCCUAGAAUACACACACGUCCUCCGGUGCAUGCACAACCACCCAGCAUCUUUCUUUGUGAUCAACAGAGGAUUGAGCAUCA` gave a bound/input enrichment of 0.632 ratio.
`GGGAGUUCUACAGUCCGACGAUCGAACAUGGCAUCCAGCCUGAUGGCCAGAUGCCAAGUGACAAGACCAUUGGGGGAGGAGAUGACUCCUUCAACACCUUCUUCAGUGAGACAGGAGCUGGCAAGCAUGUGCCCCGGGCAGUGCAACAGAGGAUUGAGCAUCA` has a bound/input enrichment of 0.124 ratio.
The bound/input enrichment of `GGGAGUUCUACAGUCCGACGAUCCAGAUUCCCAGCCUUUCAGCCAACCGUUCUCUCACAGAAGGCCUUGUCCUGGACACAAUGAAUGAUAGCCUCAGCAAGAUCCUUCUAGACAUCAGUUUCCCUGGCCUGGAGGAGGACCCUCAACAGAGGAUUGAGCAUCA` is reported as 0.165 ratio.
The bound/input enrichment of `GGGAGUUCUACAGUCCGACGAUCCAGCUGUGGGAAACGAGCUUUGCUUUUAUAUAUAUAUAUAUAUAUAUAUAUAUAUAUUUAAAUAGGAUACUUUUAUAUGAUGGGUGCUUUGAGUGUGAAUGCAGCAGGCUCUAUCUCAGACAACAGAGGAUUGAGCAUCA` is reported as 21.4 ratio.
`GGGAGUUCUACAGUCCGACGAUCUGUGGCAGUGCCCCGUGUUUGCUGUGCCGAUGCUGCCCCAGUGGGAACAACUCCACUGUGACUAGAUUGAUCUACGCACUUUUCUUGCUCGUCGGAGUAUGUGUAGCUUGUGUAAUGUUACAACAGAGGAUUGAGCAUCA` gave a bound/input enrichment of 0.289 ratio.
The bound/input enrichment of `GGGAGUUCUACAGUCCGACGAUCCAGCAGUUGUAUUCUUUAUUAGCUUGGUAGAUCAUUUUCUCUCGCUCUUUUUUUUAAUACUAGCAACUUUCAUCCUUUGAAACGUGUGCUGAAAAAGAAGAAUCAGCAAAUACUACUGAACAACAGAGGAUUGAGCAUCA` is reported as 0.86 ratio.
With `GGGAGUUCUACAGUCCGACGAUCACAGAGCCUCUUGUCCCACCUUUGUCCCCUGGCUGCUGCCCUCCCAUUCUCCCCCUCCAGUAGUAGCUGGGUGAGACCUGUCCGCCCACCUUCCCUCCACUACAGAACCUGCAGCCGCAACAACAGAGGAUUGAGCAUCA` the bound/input enrichment was 0.594 ratio.

Study 3
Target: Histone acetyltransferase KAT6A, both winged helices, GST fusion (KAT6A, Homo sapiens, UniProt Q92794, residues 1-181)
Technique: protein binding microarray
Molecule type: double-stranded DNA, one strand shown
Matrix: in vitro
Concentration: not given
Notes: 8-mer, flanks averaged, mean of 2 arrays, mostly near background
Baseline: not given
Direction: higher = stronger binding
Residues (chain): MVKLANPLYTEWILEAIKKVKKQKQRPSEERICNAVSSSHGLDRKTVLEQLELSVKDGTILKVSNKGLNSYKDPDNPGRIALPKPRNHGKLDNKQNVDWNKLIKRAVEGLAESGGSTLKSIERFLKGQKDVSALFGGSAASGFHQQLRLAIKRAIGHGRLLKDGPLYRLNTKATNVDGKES
`GAGTTTCC` has an E-score of 0.0765.
`GAACGTAC` has an E-score of -0.0384.
The E-score of `AACGTTAC` is reported as 0.0838.
For `CGGTAACG`, the E-score was 0.257.
With `ATAGCGCA` the E-score was 0.165.
With `ATTTGCCA` the E-score was -0.163.
`CATATTGC` gave an E-score of 0.0162.
With `ACGTTCAT` the E-score was -0.0528.
`CAGGAAAG` gave an E-score of -0.167.
`ATTGTGTG` gave an E-score of -0.0501.
With `ATGCGATC` the E-score was 0.0642.
`AAGGTAAT` has an E-score of -0.111.
For `ACTGGCGA`, the E-score was -0.097.
The E-score of `CAACGAAC` is reported as -0.0509.
`CTCTCCTC` has an E-score of -0.178.
With `ATTTGAGG` the E-score was -0.0968.
`TATGGAAA` has an E-score of -0.223.
With `CAATGCCC` the E-score was -0.0429.
With `CCTAAAGG` the E-score was -0.0838.
`ATCATGCC` gave an E-score of -0.0536.
With `GAGTTCGA` the E-score was 0.00852.
`ACGCCTTA` gave an E-score of 0.145.
`CGCATCAC` has an E-score of 0.0855.
`ACGTGGTG` has an E-score of -0.0398.
The E-score of `AGGATCCA` is reported as -0.0634.

Study 4
Target: RNA binding protein fox-1 homolog 2, RRM domain, GST-SBP tag (RBFOX2, Homo sapiens, UniProt O43251-10, residues 100-194)
Technique: RNA Bind-n-Seq
Molecule type: RNA
Matrix: in vitro
Concentration: 365 nM
Notes: natural RNA segment, single round, ends assumed
Baseline: no-protein control
Direction: higher = stronger binding
Target sequence (chain): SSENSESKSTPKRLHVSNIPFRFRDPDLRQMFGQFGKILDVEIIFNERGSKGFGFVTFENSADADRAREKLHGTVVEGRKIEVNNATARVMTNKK
Under “RBNS enrichment (R)”, `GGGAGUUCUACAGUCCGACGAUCUUCCUGCUUUUUACUGGGGACUCCAGAUUUUCCCCAAACUUGCUUCUGUUGAGAUUUUUCCCUCACCUUGCCUCUCAGGCACAAUAAAUAUAGUUAUACCACUGCCCAUCUGGAAUUCUCGGGUGCCAA` is recorded as 1.07.
Under “RBNS enrichment (R)”, `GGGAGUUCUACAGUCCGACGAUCAGGUCUAGGUGUGUUUAAAUUUCUGAAGAUCAUUUUUCAUUAUAACAUUCAGGCCAGACACUUGAAAGUGACUGUUUGUUCUUAUAGUGUCCCCAAGUCUGCUAAUUAAGUGGAAUUCUCGGGUGCCAA` is recorded as 0.215.
`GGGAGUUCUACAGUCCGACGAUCGCCCUAGGCACUGAUAGUUGCCUUUUCUUCCCCUCCUGUAAGAGUAUUAACAAAACCAAAGGACACAAGGGUGCAAGCCCCAUUCACGGCCUGGCAUGCAGCUUGUCCUUUGGAAUUCUCGGGUGCCAA` — result for “RBNS enrichment (R)”: 0.484.
`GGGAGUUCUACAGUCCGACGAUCAGCAGAGAGAGCCCAUCUGCAGAAACCCAGUUGUACUACCUGGGCUUGCUUAAUUUCUACAGGCUGUCUUGUCUUUCAUAUGCUAACCACUAUCUUAAAAUGAAAGACAAUGGAAUUCUCGGGUGCCAA` — result for “RBNS enrichment (R)”: 0.44.
Under “RBNS enrichment (R)”, `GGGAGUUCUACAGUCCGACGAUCUAAUAUGUGCAGGGCAGAUGUCACUACUGAAUAUCACAUCAAUGCUAGGGCUGUAUUUACUGUCACACACAGGCACCGGUAAGUGACUUUACCGGUGAAAGUCACAGGUAUGGAAUUCUCGGGUGCCAA` is recorded as 0.318.
Under “RBNS enrichment (R)”, `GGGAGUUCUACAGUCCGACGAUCUCUGCUGAUAGCCAGGAAGGAGGGAGACCAGCCCUGCCCCUCAGGACCUGACCUGGCUCAUGAUGCCAAGAGGAAGACAGAGCUCUAGCCUCGUCUUCUCCUGCCCACAGUGGAAUUCUCGGGUGCCAA` is recorded as 0.327.
`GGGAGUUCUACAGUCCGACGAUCAUUUCUGUGCACAUCCUUGGAGGCGAGAUGAGCUCCUUGCAGAGGGCCAGAGUAAGUGCAAGUCAUGGAGUGCAGGCAGAGGGGUCCAUGGCUUCCCCAGCCCAGGGAGGUGGAAUUCUCGGGUGCCAA`: “RBNS enrichment (R)” 0.482.
`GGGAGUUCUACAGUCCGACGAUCAGAUGUCCUGAGGAGAAAAGCUGGACAUAUACUGGGCUUCACACUUAUCUUAUGGCUUGGCAGAAUCUUUGUAGUGUGUGGGAUCUCUGAAGGCCCUAUUUAAGUUUUUCUGGAAUUCUCGGGUGCCAA`: “RBNS enrichment (R)” 1.18.

Study 5
Target: PABPC1L2, full length, GST fusion (mouse, UniProt A0ABA7IW68)
Technique: RNAcompete
Molecule type: RNA
Matrix: in vitro
Concentration: 20 nM
Notes: 7-mer, probes averaged, single round
Baseline: mean of 7-mers
Direction: higher = stronger binding
Residues (chain): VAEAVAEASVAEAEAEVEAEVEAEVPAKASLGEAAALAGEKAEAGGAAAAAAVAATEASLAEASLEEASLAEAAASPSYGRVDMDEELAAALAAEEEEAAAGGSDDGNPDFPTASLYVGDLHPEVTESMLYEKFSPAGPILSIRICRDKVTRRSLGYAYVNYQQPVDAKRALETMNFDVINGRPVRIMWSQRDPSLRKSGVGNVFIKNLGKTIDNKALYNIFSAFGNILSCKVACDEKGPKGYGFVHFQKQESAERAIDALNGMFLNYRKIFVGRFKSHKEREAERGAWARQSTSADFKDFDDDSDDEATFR
`UCACAUU` has a 7-mer Z-score of -0.171.
`GCUCGAA` has a 7-mer Z-score of -0.104.
For `CAUUAAC`, the 7-mer Z-score was -0.0554.
`CGGUACA` gave a 7-mer Z-score of -0.0246.
The 7-mer Z-score of `CCUCGAU` is reported as -0.226.
With `GGCCUAG` the 7-mer Z-score was -0.202.
`GUGUAGA` gave a 7-mer Z-score of 0.0297.
`ACCUCUC` has a 7-mer Z-score of -0.278.
With `CUGUUGA` the 7-mer Z-score was -0.195.
`UUGCUAC` has a 7-mer Z-score of -0.329.
With `UAGCCCG` the 7-mer Z-score was -0.11.
`GUUAAUC` has a 7-mer Z-score of -0.278.
The 7-mer Z-score of `CACCUAG` is reported as -0.233.
The 7-mer Z-score of `AAAAACC` is reported as 11.2.
For `AUCUCUG`, the 7-mer Z-score was -0.166.
The 7-mer Z-score of `AAUGCGC` is reported as 0.0714.
`UCCGUGG` has a 7-mer Z-score of -0.184.
The 7-mer Z-score of `AUCACAC` is reported as -0.18.
For `AAGCGGU`, the 7-mer Z-score was 0.278.

Excerpt of the above (study 1):
For `GACAAACA`, the E-score was 0.305.
With `ACAACCAT` the E-score was 0.256.
The E-score of `ACATGTCG` is reported as 0.259.
The E-score of `GCGACAAA` is reported as 0.325.
The E-score of `AACGACAT` is reported as 0.289.
